Measurements pooled from the literature.
Compare with care: the assays were run in different laboratories. In brackets after ≈: the same amount, converted by molar mass.

| SMILES | organism | test | system | conditions | scale | measurement | value |
| --- | --- | --- | --- | --- | --- | --- | --- |
| CC(=O)c1c(O)c(C)c(O)c2c1OC1=CC(=O)/C3=C(/C)N[C@H](C(=O)O)CC1=CC=C(O)C=C[C@@]2(C)C3=O | Candida tropicalis | – | – | – | – | MFC/MIC ratio | 32 |
| CC[C@H](C)[C@H](NC(=O)CN)C(=O)N[C@@H](Cc1c[nH]c2ccccc12)C(=O)N[C@@H](CCCCN)C(=O)N1CCC[C@H]1C(=O)N[C@H](C(=O)N[C@@H](Cc1ccccc1)C(=O)N[C@H](C(=O)N[C@@H](Cc1ccc(O)cc1)C(=O)N[C@@H](CC(C)C)C(=O)N[C@@H](C)C(=O)N[C@H](C(=O)N1CCC[C@H]1C(=O)N[C@H](C(=O)N[C@@H](Cc1c[nH]cn1)C(=O)N[C@@H](Cc1ccccc1)C(=O)N[C@@H](CCCCN)C(=O)N[C@@H](Cc1ccccc1)C(=O)O)[C@@H](C)CC)[C@@H](C)O)[C@@H](C)O)[C@@H](C)CC | Gram-negative bacteria | MIC | – | concentration not given | – | antibacterial activity | active |
| CC(=O)Nc1cccc(CNC(=O)c2cnc3ccccc3c2C(F)(F)F)c1 | Drosophila melanogaster | – | APP transgenic (Alzheimer model) | in food, 100 µM, 168 h, from adult day 7 | – | median survival | 40 days |
| C/C=C/c1ccc(OCc2ccccc2)c(OC)c1 | Spodoptera frugiperda | – | larvae | 250 µg/mL | baseline: untreated control | antifeedant index | 19.2% |
| CS(=O)(=O)c1ccc(/C=N/NC(=O)Cn2ccc(=O)c3ccccc32)cc1 | Rhizoctonia solani | microbial growth | – | 50 µg/mL | – | inhibition | 14.3% |
| O=C(C1CCN(c2nnnn2-c2ccccc2)CC1)N1CCCc2ccccc21 | Plasmodium falciparum | – | Dd2 PfeEF2 mutant | – | baseline: wild-type Dd2 | IC50 fold shift | 1.8 fold |
| CC[C@H](C)[C@H](NC(=O)[C@H](CCCCN)NC(=O)[C@H](CCCCN)NC(=O)[C@H](CC(C)C)NC(=O)[C@H](CCCCN)NC(=O)[C@H](CCC(=O)O)NC(=O)[C@H](CCCCN)NC(=O)[C@@H](NC(=O)[C@H](CCCCN)NC(=O)[C@H](CC(N)=O)NC(=O)[C@H](CCCNC(=N)N)NC(=O)[C@H](Cc1ccccc1)NC(=O)[C@H](CCCCN)NC(=O)[C@H](CCCNC(=N)N)NC(=O)[C@H](CC(C)C)NC(=O)[C@H](CCCNC(=N)N)NC(=O)[C@H](CCCCN)NC(=O)[C@H](CCCNC(=N)N)NC(=O)[C@H](CC(C)C)NC(=O)[C@@H](N)CCCNC(=N)N)[C@@H](C)CC)C(=O)NCC(=O)N[C@@H](CCC(N)=O)C(=O)N[C@@H](CCCCN)C(=O)N[C@H](C(=O)N[C@@H](CCC(N)=O)C(=O)NCC(=O)N[C@@H](Cc1ccccc1)C(=O)N[C@H](C(=O)N1CCC[C@H]1C(=O)N[C@@H](CCCCN)C(=O)N[C@@H](CC(C)C)C(=O)N[C@@H](CCC(N)=O)C(=O)N1CCC[C@H]1C(=O)N[C@@H](CO)C(=O)N[C@@H](CCCCN)C(=O)N[C@@H](CCC(N)=O)C(=O)N[C@@H](CO)C(=O)O)C(C)C)[C@@H](C)CC | Streptococcus salivarius | inhibition zone | ATCC 1.2498 | LB agar, overnight | – | lethal concentration | 4.13 µM |
| C/C=C/c1ccc(OC(C)=O)c(OC)c1 | Spodoptera frugiperda | – | larvae | 50 µg/mL | baseline: untreated control | antifeedant index | 34.5% |
| CC(=O)O[C@@H]1C[C@@H](C)O[C@H]2O[C@@H]3C[C@@H]4CC[C@@H]5[C@H](CC[C@]6(C)[C@@H](C7=CC(=O)OC7)CC[C@]56O)[C@@]4(C)C[C@H]3O[C@]21O | Schistosoma mansoni | microscopic viability score | adult worms | 1 µM, 72 h | – | viability effect | 99% |
| C=CCc1ccc(OCC=C(C)C)c(OC)c1 | Spodoptera frugiperda | – | larvae | 500 µg/mL | baseline: untreated control | antifeedant index | 53.8% |
| CC(C)C[C@@H]1NC(=O)[C@H](CCCCN)NC(=O)[C@H](C(C)C)NC(=O)[C@H](CCCCN)NC(=O)[C@H](CC(C)C)NC(=O)[C@@H]2CCCN2C(=O)[C@@H](Cc2ccc(O)cc2)NC(=O)[C@H](C(C)C)NC(=O)[C@H](CCCCN)NC(=O)[C@H](CCCCN)NC(=O)[C@H](C(C)C)NC(=O)[C@@H]2CCCN2C(=O)[C@@H](Cc2ccc(O)cc2)NC1=O | Gram-negative bacteria | – | – | 24 h, 7 strains | – | MIC geometric mean | 29 µg/mL (≈ 18.6 µM) |
| CC[C@H](C)[C@H](NC(=O)[C@H](CCCCN)NC(=O)[C@H](CCCCN)NC(=O)[C@H](CC(C)C)NC(=O)[C@H](CCCCN)NC(=O)[C@H](CCC(=O)O)NC(=O)[C@H](CCCCN)NC(=O)[C@@H](NC(=O)[C@H](CCCCN)NC(=O)[C@H](CC(N)=O)NC(=O)[C@H](CCCNC(=N)N)NC(=O)[C@H](Cc1ccccc1)NC(=O)[C@H](CCCCN)NC(=O)[C@H](CCCNC(=N)N)NC(=O)[C@H](CC(C)C)NC(=O)[C@H](CCCNC(=N)N)NC(=O)[C@H](CCCCN)NC(=O)[C@H](CCCNC(=N)N)NC(=O)[C@H](CC(C)C)NC(=O)[C@@H](N)CC(C)C)[C@@H](C)CC)C(=O)NCC(=O)N[C@@H](CCC(N)=O)C(=O)N[C@@H](CCCCN)C(=O)N[C@H](C(=O)N[C@@H](CCC(N)=O)C(=O)NCC(=O)N[C@@H](Cc1ccccc1)C(=O)N[C@H](C(=O)N1CCC[C@H]1C(=O)N[C@@H](CCCCN)C(=O)N[C@@H](CC(C)C)C(=O)N[C@H](C(=O)N1CCC[C@H]1C(=O)N[C@@H](CCCNC(=N)N)C(=O)N[C@H](C(=O)N[C@@H](CCC(=O)O)C(=O)N[C@@H](CO)C(=O)O)[C@@H](C)O)C(C)C)C(C)C)[C@@H](C)CC | Streptococcus salivarius | inhibition zone | ATCC 1.2498 | LB agar, overnight | – | lethal concentration | 2.79 µM |
| CC[C@H](C)[C@H](NC(=O)[C@@H]1CC(=O)N[C@@H](CO)C(=O)N[C@@H](CC(C)C)C(=O)NCC(=O)N[C@@H](CO)C(=O)N[C@@H](CO)C(=O)N2CCC[C@H]2C(=O)N[C@@H](Cc2ccc(O)cc2)C(=O)N[C@@H](CC(N)=O)C(=O)N1)C(=O)N[C@@H](CC(C)C)C(=O)NCC(=O)N[C@@H](Cc1ccc(O)cc1)C(=O)N1CCC[C@H]1C(=O)N[C@@H](C)C(=O)N[C@@H](CC(C)C)C(=O)N[C@H](C(=O)N[C@H](C(=O)N[C@H](C(=O)N[C@@H](Cc1ccc(O)cc1)C(=O)N1CCC[C@H]1C(=O)O)[C@@H](C)CC)C(C)C)[C@@H](C)CC | Gram-negative bacteria | – | – | concentration not given | – | antibacterial activity | inactive |
| CC[C@H](C)[C@H](NC(=O)[C@H](CO)NC(=O)[C@H](CO)NC(=O)[C@H](Cc1ccccc1)NC(=O)CN)C(=O)N[C@@H](Cc1ccccc1)C(=O)N[C@@H](CCCNC(=N)N)C(=O)NCC(=O)N[C@H](C(=O)N[C@@H](C)C(=O)N[C@@H](CCCCN)C(N)=O)C(C)C | Escherichia coli | – | ATCC 8739 | 20% FBS | – | MBC | > 128 µM |
| CCCCCCCC(=O)N[C@@H](CCCN)C(=O)N[C@@H](CCCN)C(=O)N[C@@H](CC(C)C)C(=O)N[C@@H](CC(C)C)C(=O)N[C@@H](CCCN)C(=O)N[C@@H](CCCN)C(=O)N[C@@H](CC(C)C)C(=O)N[C@@H](CCCN)C(=O)N[C@@H](CCCN)C(=O)N[C@@H](CC(C)C)C(N)=O | Staphylococcus aureus, Escherichia coli | – | – | – | baseline: S. aureus over E. coli | MIC ratio | 4 |
| C=CCc1ccc(OCc2ccccc2)c(OC)c1 | Spodoptera frugiperda | – | larvae | 50 µg/mL | baseline: untreated control | antifeedant index | 28.5% |
| C=C(C)[C@@H]1CC[C@]2(CO)CC[C@]3(C)[C@H](CC[C@@H]4[C@@]5(C)CCCNC(C)(C)[C@@H]5CC[C@]43C)[C@@H]12 | Human cytomegalovirus | – | HFF, AD169 | – | baseline: CC50 over EC50 | selectivity index | 115 |

Repeated from above:
| SMILES | organism | test | system | conditions | scale | measurement | value |
| --- | --- | --- | --- | --- | --- | --- | --- |
| CC(=O)Nc1cccc(CNC(=O)c2cnc3ccccc3c2C(F)(F)F)c1 | Drosophila melanogaster | – | APP transgenic (Alzheimer model) | in food, 100 µM, 168 h, from adult day 7 | – | median survival | 40 days |
